Measurements from different studies.
Every numbered part comes from another study and shows a few of its results, in no order. Substitutions count along the parent as printed.

Sample 1
Target: Histone acetyltransferase KAT6A, both winged helices, GST fusion (KAT6A, Homo sapiens, UniProt Q92794, residues 1-181)
Method: protein binding microarray
Form: double-stranded DNA, one strand shown
Medium: in vitro
Concentration: not given
Notes: 8-mer, flanks averaged, mean of 2 arrays, mostly near background
Baseline: not given
Reading: higher = stronger binding
Construct (chain): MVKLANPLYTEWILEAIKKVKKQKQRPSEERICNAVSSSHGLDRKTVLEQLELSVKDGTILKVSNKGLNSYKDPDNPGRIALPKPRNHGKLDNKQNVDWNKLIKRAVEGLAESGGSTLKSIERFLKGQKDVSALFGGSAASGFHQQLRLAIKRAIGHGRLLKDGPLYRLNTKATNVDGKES
Oligonucleotide	E-score
CACCAACC	-0.0855
AATGAAAA	0.0149
ACTTATGA	-0.199
GGACCGGA	0.132
ATGAAATG	-0.196
ATCCAATC	-0.113
GGCTGTTA	0.144
CAACAGTC	-0.0912
GAGGCGAC	-0.0276
ACCTTAAC	0.0788
TAATGTGA	-0.0206
CTAAGGTC	-0.135
AGGTCGTC	-0.013
AATTACTA	0.0404
AAATCTTG	-0.0899
GACTTTCC	-0.1

Sample 2
Target: CCNE1, cyclin fold, Cln2 fusion (human)
Method: yeast growth competition, sequencing
Medium: yeast
Notes: strong parent motif
Baseline: not given
Reading: higher = stronger binding
Starting sequence: SCAPER docking peptide (human); SNARRSLNFGGST
Variant	normalised enrichment score
S12G	0.704
A3R	-0.325
S1A	1.05
N8Y	0.501
N2A	0.984
T13E	1.3
S1D	1.02
N8C	0.456
G10K	0.645
G11W	1.01
A3I	0.269
F9R	0.387
G11M	0.672
N2G	1.73
L7T	0.483
N2F	1.32
R4S	-0.833
S6V	5.18
N2P	1.45
S12C	1.52
L7E	-0.471
R4H	0.0339
G10R	0.181
S12H	1.07
R5K	0.0414

Sample 3
Target: Interferon regulatory factor 7, full length, phosphomimetic (IRF7, Homo sapiens, UniProt Q92985, residues 1-503, S471D/S472D/S475D/S476D/S477D/S483D/S484D/S487D)
Method: protein-binding microarray
Form: double-stranded DNA, one strand shown
Medium: in vitro
Concentration: 2200 nM top
Notes: 60-bp whole probe
Added: salmon DNA 0.4 mg/ml
Baseline: random background probes
Reading: higher = stronger binding
Shared flanks, not repeated: GCCTAGCAC … GTCTTGATTCGCTTGACGCTGCTG
Residues (chain): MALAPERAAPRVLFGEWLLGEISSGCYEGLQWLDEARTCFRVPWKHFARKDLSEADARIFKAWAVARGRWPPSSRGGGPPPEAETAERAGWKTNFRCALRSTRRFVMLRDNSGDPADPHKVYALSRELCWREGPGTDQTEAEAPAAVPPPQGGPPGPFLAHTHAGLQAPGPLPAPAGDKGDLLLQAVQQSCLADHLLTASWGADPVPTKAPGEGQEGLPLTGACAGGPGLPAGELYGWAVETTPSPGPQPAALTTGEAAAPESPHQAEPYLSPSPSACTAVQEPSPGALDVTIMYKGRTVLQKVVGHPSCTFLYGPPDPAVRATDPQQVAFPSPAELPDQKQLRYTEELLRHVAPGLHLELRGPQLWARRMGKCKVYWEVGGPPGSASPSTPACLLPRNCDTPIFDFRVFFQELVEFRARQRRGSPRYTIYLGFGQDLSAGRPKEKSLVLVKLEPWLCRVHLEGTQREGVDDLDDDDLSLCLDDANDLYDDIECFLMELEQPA
Oligonucleotide	fitted relative affinity [z-score]
GACGGTTTCGCTCTCGGGACGTGCTAG	5.21
CACTATTTAAGACCTATGCACGTGCTA	0.412
GACGGTTCCCTTTCCCTGACGTGCTAG	2.02
TTCCTTGCTATGTTGCTCAGGTGCTAG	2.09
TCAACTTTCCAATTGTCACTGTGCTAG	4.68
GACGATATCAGACTGGAGATGTGCTAG	-0.159
TCTGTTTTTGCTTTCCTTCAGTGCTAG	5.32
TCATGTCTGTGTCACAGAGAGTGCTAG	0.804
GTAGATCTCAGTTTCGATTAGTGCTAG	5.33
GACGAACTGGGGTTTCGAGAGGTGCTA	0.58
TCAGTTTTGTGTGTGTGACTGTGCTAG	2.01
TTAGGTTTCTGTATCGGTTAGTGCTAG	2.64
CAGCACATGCATCTCCCACAGTGCTAG	0.586
TCACTTCTCGAGTGCCGGACTGTGCTA	1.6
TCAATTTTTACATTATTACTGTGCTAG	0.932
GACGTTATCAGTATCGAGACGTGCTAG	0.627
TCTGTTTTTGCTTTCTTTATGTGCTAG	4.82
GACGAACTAAGACTGGAGACGTGCTAG	-0.483
GACGTACTGCTTTTCCTGACGTGCTAG	1.18

Sample 4
Target: RING finger protein unkempt homolog, zinc fingers 1-6, GST-SBP tag (UNK, Homo sapiens, UniProt Q9C0B0, residues 30-357)
Method: RNA Bind-n-Seq
Form: RNA
Medium: in vitro
Concentration: not given
Notes: RNA with constant flanks, human-mouse chimeric sites, ends assumed
Baseline: input RNA pool
Reading: higher = stronger binding
Shared flanks, not repeated: GGGAGUUCUACAGUCCGACGAUC … CAACAGAGGAUUGAGCAUCA
Target sequence (chain): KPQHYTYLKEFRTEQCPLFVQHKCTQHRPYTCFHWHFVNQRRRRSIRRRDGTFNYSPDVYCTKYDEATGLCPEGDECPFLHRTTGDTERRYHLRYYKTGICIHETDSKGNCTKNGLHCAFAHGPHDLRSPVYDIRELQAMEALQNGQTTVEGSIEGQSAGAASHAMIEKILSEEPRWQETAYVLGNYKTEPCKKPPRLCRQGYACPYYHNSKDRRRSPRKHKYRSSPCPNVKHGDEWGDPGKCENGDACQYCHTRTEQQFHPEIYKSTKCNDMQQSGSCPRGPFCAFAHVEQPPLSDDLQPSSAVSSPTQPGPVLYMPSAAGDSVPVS
Oligonucleotide	bound/input enrichment
CUUAAUGUUAAUAUUUUUGAAUAAAUGAAGCUAAAAUGUCUGCUUUUGGUACAACACGCAUUAGCGAAAGGUUAAGUUUUGUUUUCCCUCCACUGAAUAUUUAACAUCUCAGAAAAAAAC	0.642 ratio
GUUGCCAGCUUCCGGUUGGCCUCCAUCAGCAAGCUCCCUGAGCUACGUGUCUCUACGCUCUCAAUCCGCCAUCCAACAAACAUGGAUCAGGUAAUGCAGUUUGUGGAGCCCAGCCGGCAG	0.0715 ratio
UUUGUAUUUAUGCUAAGCACACGUGCUGGUGGUCUGGGCAUCAAUCUUGCAACUGCUGAUGUAGUCAUUUUAUAUGAUUCUGAUUGGAAUCCCCAAGUUGAUCUUCAGGCUAUGGACCGU	0.185 ratio
AAAUCGUGUGUGUCCAAUAUUGAAAGUGCUUUAUCUACACUCCAGUAUGUAAGCAGUAUAGUAGUUUCUUUAGAGAAUAGGUCUGCCAUUGUAAAGUACAAUGCAAGCUCAGUCACUCCA	8.86 ratio
CAGGGCAUUAUUUCUCGUGCUGUUAGACACCUGUUCAAGAGUAUUGAUGAGAAAAAGACCUCAGCGAUUAAAAACGGGCUGCCCCCUCCUGAAUUCAAAGUGAAUGCCCAGUUCCUAGAG	0.113 ratio
GAAUCCUACUCAGGCGGAUUUUGCAACACCAAGCUCACAGCAGCAGCUCCAUAGUCACAGUAGGGUAGUUUUGGGGCUCUGUGGCCAGGGUUUUAUUCAUGUGCAGGUUUGGAAAAUGUA	0.639 ratio
GGCUGCUGGUGACUGUCCUGGAGUGGCUGGAGUUCCCGCCGGAGCGCGCGCAGGUUAAUUAUAGAAAAUGCCAAGUAGGAAGUUUGUUGAGGGUGAAGUGGUCAGAGGCCGAUGGCCUGG	3.62 ratio
CUGUGACCACAAGAUCCUACCUGAGUGUUCAGAUGGGUUGACUCCCUCUCCUUGCCUGAACCCCCCCCCACUGCCCCCCCAUCCCCCGCAGAAUUCCGAGAUGUUGCCUCUGCACGGUUC	0.661 ratio

Some of these lines once more (sample 1):
Oligonucleotide	E-score
GAGGCGAC	-0.0276
ACCTTAAC	0.0788
TAATGTGA	-0.0206
CTAAGGTC	-0.135
AGGTCGTC	-0.013
AATTACTA	0.0404
AAATCTTG	-0.0899
GACTTTCC	-0.1
